Published values of several laboratories.
Values joined by “and” are separate records of one study, mostly repeats; a detail may differ. ± gives the spread as reported.

O=C1NC2(CC2)COc2ncc(F)cc2[C@H]2COCCN2c2ccn3ncc1c3n2  epididymis weight (Sprague-Dawley rat, male, epididymides; oral, 2.5 mg/kg/day, end of recovery, 4-week repeated-dose toxicity): 1.42 ± 0.147 g
CC(C)(C)C(=O)OCOP(=O)(OCOC(=O)C(C)(C)C)C1CCCN(O)C1=O (stereo not drawn)  TGI (BT-549): 1.26 µM
C=CCN1C(=O)C(CC=C)(C(=O)OCC)Oc2cc(F)ccc21 (stereo not drawn)  inhibition (HaCaT; cell growth or viability, CCK-8; 3.13 µM, 72 h): 0.35%
NC(=O)N/N=C/c1ccc(OCc2cccc(F)c2)cc1  glutathione peroxidase activity (OD450) (IMR-32; refers to: GPX3; 50 µg/mL, 24 h; higher = more activity): 0.021 a.u.
CC(=O)NCSC[C@H](NC(=O)[C@@H]1CCCN1C(=O)[C@H](C)NC(=O)[C@@H](NC(=O)CNC(=O)[C@@H](NC(=O)[C@H](Cc1c[nH]c2ccccc12)NC(=O)[C@H](C)NC(=O)CNC(=O)[C@H](CO)NC(=O)[C@H](C)NC(=O)[C@@H]1CCCN1C(=O)[C@H](Cc1c[nH]c2ccccc12)NC(=O)[C@H](C)NC(=O)[C@H](C)NC(=O)[C@@H](N)Cc1ccc(O)cc1)[C@@H](C)O)[C@@H](C)O)C(=O)N[C@@H](CO)C(=O)N[C@@H](C)C(=O)NCC(=O)N[C@H](C(=O)NCCOCCOCCOCCOCCOCCOCCOCCOCCOCCOCCOCCOCCC(=O)N[C@@H](CS)C(N)=O)[C@@H](C)O  selectivity ratio (H460 lung large cell carcinoma; cell binding, phage binding, refers to: output/input phage; 10 min, 37 °C; relative to: control phage): 1.1 ± 0.33
CC[C@H](C)[C@H](NC(=O)CNC(=O)[C@H](Cc1ccc(O)cc1)NC(=O)[C@H](CO)NC(=O)[C@H](Cc1ccc(O)cc1)NC(=O)[C@@H](NC(=O)[C@H](CC(=O)O)NC(=O)[C@H](CO)NC(=O)[C@H](CCC(N)=O)NC(=O)[C@H](Cc1ccccc1)NC(=O)[C@H](CO)NC(=O)[C@H](Cc1ccccc1)NC(=O)[C@@H]1CCCN1C(=O)[C@H](CC(N)=O)NC(=O)[C@H](CC(N)=O)NC(=O)[C@H](CC(=O)O)NC(=O)[C@H](CCC(N)=O)NC(=O)[C@@H]1CCCN1C(=O)[C@H](CCCNC(=N)N)NC(=O)[C@H](CCCNC(=N)N)NC(=O)[C@H](CCCNC(=N)N)NC(=O)[C@H](CCC(N)=O)NC(=O)[C@H](CCCNC(=N)N)NC(=O)[C@H](CCCNC(=N)N)NC(=O)[C@H](CCCCN)NC(=O)[C@H](CCCCN)NC(=O)[C@H](CCCNC(=N)N)NC(=O)CN)C(C)C)C(=O)N[C@H](C(=O)N[C@@H](CC(C)C)C(N)=O)C(C)C  phospho-MEK1/2 level (MCF7; immunoblot densitometry, refers to: phospho-MEK1/2 Ser217/221; 20 µM, 48 h, unit not given; relative to: 0 µM): 0.487 and 0.313
CCOC(=O)C1(Cc2ccccc2)Oc2cc(F)ccc2N(Cc2ccccc2)C1=O (stereo not drawn)  inhibition (HaCaT; cell growth or viability, CCK-8; 0.78 µM, 72 h): 0%
COc1ccccc1-c1ccncc1C(=O)Nc1nnc(OCc2ccc(Cl)cc2)s1  colony survival (DLD-1 parental; 0.06 µM; relative to: untreated): 97% and 98.2% and 95%
CC(C)C[C@H](NC(=O)[C@H](CC(=O)O)NC(=O)CNC(=O)[C@@H](N)CCCNC(=N)N)C(=O)N[C@@H](C)C(=O)N[C@H](C(=O)N[C@@H](CC(C)C)C(=O)N[C@@H](CCCNC(=N)N)C(=O)N[C@@H](CCC(N)=O)C(=O)N[C@@H](CC(C)C)C(=O)N[C@@H](C)C(=O)N[C@@H](CCC(N)=O)C(=O)N[C@@H](CCC(=O)O)C(=O)N[C@@H](CC(=O)O)C(=O)NCC(=O)N[C@H](C(=O)N[C@H](C(=O)NCC(=O)N[C@H](C(=O)N[C@@H](CCCNC(=N)N)C(=O)NCCOCCOCCOCCOCCOCCOCCOCCOCCOCCOCCOCCOCCC(=O)N[C@@H](CS)C(N)=O)C(C)C)C(C)C)C(C)C)[C@@H](C)O  selectivity ratio (HCC366 lung adenosquamous carcinoma; cell binding, phage binding, refers to: output/input phage; 10 min, 37 °C; relative to: control phage): 3.5 ± 1.4
CC1CCC2C(C)C(OC(=O)CCC(=O)N3CCC(Nc4ccc(S(=O)(=O)NC(=O)c5ccc(N6CCN(CC7=C(c8ccc(Cl)cc8)CC(C)(C)CC7)CC6)cc5Oc5cnc6[nH]ccc6c5)cc4[N+](=O)[O-])CC3)OC3OC4(C)CCC1C32OO4 (stereo not drawn)  viable cells (THP-1; annexin V/PI flow cytometry, refers to: annexin V-/PI-; 0.4 µM, 24 h): 27.5%
CC(C)=CCc1c(O)cc2c(c1O)C(=O)CC(c1ccc(O)cc1)O2 (stereo not drawn)  inhibition (HeLa; cell growth or viability, MTT; 3.125 µM, 48 h): 5.24%
COc1ccc(NC(=O)c2ccc3[nH]c(-c4ccc(N(C)C)cc4)nc3c2)cn1  PI-positive cells (HCT116; IncuCyte; concentration not given, 8 (unit not given)): 13.3 count and 8.42 count and 6.75 count

Some of these lines once more:
CC(C)(C)C(=O)OCOP(=O)(OCOC(=O)C(C)(C)C)C1CCCN(O)C1=O (stereo not drawn)  TGI (BT-549): 1.26 µM
CC(=O)NCSC[C@H](NC(=O)[C@@H]1CCCN1C(=O)[C@H](C)NC(=O)[C@@H](NC(=O)CNC(=O)[C@@H](NC(=O)[C@H](Cc1c[nH]c2ccccc12)NC(=O)[C@H](C)NC(=O)CNC(=O)[C@H](CO)NC(=O)[C@H](C)NC(=O)[C@@H]1CCCN1C(=O)[C@H](Cc1c[nH]c2ccccc12)NC(=O)[C@H](C)NC(=O)[C@H](C)NC(=O)[C@@H](N)Cc1ccc(O)cc1)[C@@H](C)O)[C@@H](C)O)C(=O)N[C@@H](CO)C(=O)N[C@@H](C)C(=O)NCC(=O)N[C@H](C(=O)NCCOCCOCCOCCOCCOCCOCCOCCOCCOCCOCCOCCOCCC(=O)N[C@@H](CS)C(N)=O)[C@@H](C)O  selectivity ratio (H460 lung large cell carcinoma; cell binding, phage binding, refers to: output/input phage; 10 min, 37 °C; relative to: control phage): 1.1 ± 0.33
